# Published values gathered from unrelated publications.
# A part holds a random share of what one study measured.

# Series 1
# Target: Interferon regulatory factor 7, full length, phosphomimetic (IRF7, Homo sapiens, UniProt Q92985, residues 1-503, S471D/S472D/S475D/S476D/S477D/S483D/S484D/S487D)
# Chain of UniProt Q92985 (whole entry, unmodified, looked up): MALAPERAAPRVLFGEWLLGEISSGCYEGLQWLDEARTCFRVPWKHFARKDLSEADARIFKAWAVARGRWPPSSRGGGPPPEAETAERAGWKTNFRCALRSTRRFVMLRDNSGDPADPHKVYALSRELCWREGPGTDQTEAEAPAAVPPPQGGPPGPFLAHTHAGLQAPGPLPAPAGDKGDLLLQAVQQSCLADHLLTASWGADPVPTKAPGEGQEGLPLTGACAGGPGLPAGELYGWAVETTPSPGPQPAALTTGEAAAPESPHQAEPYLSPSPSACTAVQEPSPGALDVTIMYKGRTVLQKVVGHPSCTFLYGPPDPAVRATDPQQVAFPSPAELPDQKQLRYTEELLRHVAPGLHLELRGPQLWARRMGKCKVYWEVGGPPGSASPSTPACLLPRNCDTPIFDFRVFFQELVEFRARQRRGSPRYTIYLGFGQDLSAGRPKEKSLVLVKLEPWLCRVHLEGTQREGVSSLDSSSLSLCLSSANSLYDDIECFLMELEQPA
# Method: protein-binding microarray
# Molecule type: double-stranded DNA, one strand shown
# Sample: in vitro
# Concentration: 2200 nM top
# Setting: 60-bp whole probe
# With: salmon DNA 0.4 mg/ml
# Baseline: random background probes
# Direction: higher = stronger binding
# Shared flanks, not repeated: GCCTAGCAC … GTCTTGATTCGCTTGACGCTGCTG
Oligonucleotide,fitted relative affinity [z-score]
GACGGTATCCTTCTCATGACGTGCTAG,1.16
TGAGGTATCGACTTTCGGTTAGTGCTA,5.56
TTAGGTTTCGGGACTGGGTGAGTGCTA,3.34
TTAGAACAGGGGTTTCGATTAGTGCTA,2.34
AATTCTTTGCTCATTTTTCAGGTGCTA,0.834
GCCGGTCTCCTACTGCTGACGTGCTAG,0.472
GAATGTGTCTTAAATAGGGCAGTGCTA,-0.365
TTAGGCTTCGACTTTCGGTTAGTGCTA,5.33
GACGAGTCCAGTTTCGAGACGTGCTAG,3.75
GATCCTTCCCCTCTAGGTTCGTGCTAG,1.92
GACTGACTGGGACTGGGGACGTGCTAG,-0.745
TTCGGACTGGACTATCGGTTAGTGCTA,0.0453
GACGGTCTCATTCTCCTGACGTGCTAG,0.93
TGTCCTGTCTACATGGGTGTGTGCTAG,0.711
TTAGGTTTTGGGACTGGGTTAGTGCTA,-0.0594
AACGGTTTCGGTTTCGGGACGTGCTAG,15.3
GACGGACTGCTTATTCTGACGTGCTAG,0.227
CCACTTTTATTTTCAGTATTGTGCTAG,3.99
TTAGATTTCAGACCGGATTAGTGCTAG,-0.0792

# Series 2
# Target: RNA binding protein fox-1 homolog 2, RRM domain, GST-SBP tag (RBFOX2, Homo sapiens, UniProt O43251-10, residues 100-194)
# Method: RNA Bind-n-Seq
# Molecule type: RNA
# Sample: in vitro
# Concentration: 365 nM
# Setting: natural RNA segment, single round, ends assumed
# Baseline: no-protein control
# Direction: higher = stronger binding
# Shared flanks, not repeated: GGGAGUUCUACAGUCCGACGAUC … UGGAAUUCUCGGGUGCCAA
# Target sequence (chain): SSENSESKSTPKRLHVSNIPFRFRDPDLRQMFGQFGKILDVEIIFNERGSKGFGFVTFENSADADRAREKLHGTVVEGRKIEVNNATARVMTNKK
Oligonucleotide,RBNS enrichment (R)
UAAUGUUGUUUAUAUAGUAUGUAUUAAAUUUUCCUACAUUGUAAAACUGCUGUACUUUUGAUUCUUGUAUAUUAAAAAGUGUUACUGAGCAUUUUUAGAAUUGGGCUAAC,0.55
UGCUCAGGCGAAUUUCUCAUUUCAAGCCACUGGGGAAACUGAGGCAAAACCAUACUUAGUCAUCACCAACAAGCUGGACUGCUUAGCUGGGCUGUUUUAUCUUCCCUGAG,0.353
AGUAGUGGGAUAAGUCACUGUUUUCUUUACAAAACAAAACAGUCCUGUUGGGAAUGAUUGCUGUUGGAUUCUGGAAGGGAGGGGAAAGCUGCUCUGCUGCCUCUUUGCCA,0.412
UAGGACUGUACUUUUGUAGAGUUUAGACAGAGCAUCAAUCCCUUCUCCCCGCGAGUGCAGUCGGAUGCCGUUGUCCCCAAGGGCCAGGCCGAACUCGCCCCACACCUGCG,0.516
AGGCAGCAUUUAAGCGGGAUCCUUAGCAAGACAGAAUCCAGCAAAACCCUUUCCCCUCUCAAGCCAGGAGUCUCAUCUGCUACAUUUUUUUUAACCACCUCUGAUUUCCA,1.97
UUUGUACUGUAUUCUUACUGUGUGACUAGAUGCGUGAGCGCUUUACAUUAGAAGGAACCUGGUUAGAGCUCGCUCCUCCUGUCUUUGUGUGGCAUUUGUGUUCCAUUACC,0.544
AGAUGUCUAAGGUGGAUUCAGUGUCUGGCACACUGAGACACCUCCAAGAAGGAGAUUGAUGCAUCAGGUUCAGUUUAACCUGGAAUAUCUGACUACCCCUGAAUCCACCC,0.295
CUGGAUUGGAGAUUAUUCUUGGUUAUGUUUUGGAAUCAGUCCUUUAUCUUAGUGUGCACUUGAUUGUGAGUUUUAAGAUUAUGGUUUUAGGAUUUCUUUUAUUUUUUGUC,1.52

# Series 3
# Target: RING finger protein unkempt homolog, zinc fingers 1-6, GST-SBP tag (UNK, Homo sapiens, UniProt Q9C0B0, residues 30-357)
# Method: RNA Bind-n-Seq
# Molecule type: RNA
# Sample: in vitro
# Concentration: not given
# Setting: RNA with constant flanks, human and mouse sites, ends assumed
# Baseline: input RNA pool
# Direction: higher = stronger binding
# Shared flanks, not repeated: GGGAGUUCUACAGUCCGACGAUC … CAACAGAGGAUUGAGCAUCA
# Construct (chain): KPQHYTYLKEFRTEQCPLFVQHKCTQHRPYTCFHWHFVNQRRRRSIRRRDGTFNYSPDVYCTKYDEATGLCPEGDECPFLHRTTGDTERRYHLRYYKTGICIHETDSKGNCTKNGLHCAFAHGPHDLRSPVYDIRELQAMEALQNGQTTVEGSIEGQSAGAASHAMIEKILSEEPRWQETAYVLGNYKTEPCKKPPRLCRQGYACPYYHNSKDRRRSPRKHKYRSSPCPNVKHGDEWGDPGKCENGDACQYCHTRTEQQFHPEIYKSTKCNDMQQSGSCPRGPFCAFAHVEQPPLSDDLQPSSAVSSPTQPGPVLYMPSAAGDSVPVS
Oligonucleotide,bound/input enrichment [ratio]
AUGGAUUUCUGUAGCCAUACCAAAGCCAGGGUGUUUUCAUUCAUGCGGAUACUAGUAUUUAUAGAUGUCUGACUACCUAACUUAAUUUUUGUUUUUGAACUUCUAAUUGGGGCCAGUGUA,1.71
CUUGUGCACGCCCCACCUGUGCAUCUGGGAAUCCCAUCCCUGCAUUCAUUCAUCAAGAAGCACAGUCCUCAGGUUGGCCCUGGCUUAGAGAAAGAGGACAAGGCCGACUCAGACCUUGAG,0.332
AGUCUGGUGAAUGAGACCACUCUGAUCAAAUACUCCAGGCUGCCAACCAUAAACAAGCAUAGUUUCCGGUACUUUGUUUUGGAUAACAGUGUCAUCCUGGCAAUGCUGGAGCAACCGCUU,0.0333
GCUAUAUUGACACUUGUAUGGUCAUCUUUGCCCCUCGUUACCUAUUAGAUAAUAAAUCAUCUCACAAGCUUGCAUUUGCACAAAGGGAAUUUGCUCGGGGACAGGGAACAGCCAAUCCCA,1.11
UUAUAUCGUAUGUAUCAGUAGUUACAUUUAUUAUUAAGUGCUGUCCUGAUACAGAGAUGAAAAAGUAGAACCUGGUGUGAUGGCACACACUUUGAUCCUAGCACUCUGGAGGAAGGGGCA,1.04
GCAAAAGUUUAUAUCAUAUUGGAUCAACCUGUGACUGCUUUAAAUCUAUUUAAACAAGGCUUAGAUAAGUUUCCAGGAGAGGUGACCCUGCUUUGUGGAAUUGCCAGGAUCUAUGAGGAA,0.297
UAACACGUUGAAUGCUGCCAGCUUUUUCUUUUUCUUUCUUUUUUUUUUUUUUUUUUCCUUCCAGGGCCGUUUUCUGAUAUAUGUUGGGUAUCAUAGAGUGAAUCUCAGAACAGGAAGCGG,8.53
AGACGACGGGAAUAUCAGUUAUCUGACUCUACCAAAUACUAUCUGAAUGACUUGGACCGUGUAGCCGACCCUUCCUAUCUGCCUACACAACAAGACGUGCUUAGAGUUCGAGUCCCCACU,0.21

# Series 4
# Target: Histone acetyltransferase KAT6A, winged helix 1, GST fusion (KAT6A, Homo sapiens, UniProt Q92794, residues 1-85)
# Method: protein binding microarray
# Molecule type: double-stranded DNA, one strand shown
# Sample: in vitro
# Concentration: not given
# Setting: 8-mer, flanks averaged, mean of 2 arrays, mostly near background
# Baseline: not given
# Direction: higher = stronger binding
# Construct (chain): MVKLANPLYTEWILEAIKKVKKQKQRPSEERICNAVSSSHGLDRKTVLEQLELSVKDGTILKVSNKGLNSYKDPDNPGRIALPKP
Oligonucleotide,E-score
AAGCAGTC,-0.192
GCAATGAC,-0.0478
ACGAGCCG,0.161
GAACGTAA,-0.0568
ATTGCTAG,-0.0685
CCCCATGC,-0.0257
CTCCAGGA,-0.119
ATGTGTGG,-0.235
CAAGGGGC,-0.0358
ATGGTAGC,0.0403
ATCTTTCG,-0.146
CGGTGATC,0.0275
GCTTCAAA,-0.0296
AAATGAAT,-0.356
ACCGATCC,0.0644
AGTGCGGA,0.136
AATGAGCC,-0.0406
CACACTCC,-0.125
CTCAGCCC,-0.133
GGCATTCA,0.114
CCTTCTCC,-0.277
CGCCGTGC,0.388
CCAACGCA,-0.0477
GCTAGTGA,-0.0407
AGCCCCGC,0.232

# Some of these lines once more (series 1):
Oligonucleotide,fitted relative affinity [z-score]
GACTGACTGGGACTGGGGACGTGCTAG,-0.745
GACGAGTCCAGTTTCGAGACGTGCTAG,3.75
GACGGTCTCATTCTCCTGACGTGCTAG,0.93
GACGGTATCCTTCTCATGACGTGCTAG,1.16
TGAGGTATCGACTTTCGGTTAGTGCTA,5.56
TTAGGTTTTGGGACTGGGTTAGTGCTA,-0.0594
CCACTTTTATTTTCAGTATTGTGCTAG,3.99
AATTCTTTGCTCATTTTTCAGGTGCTA,0.834
TTCGGACTGGACTATCGGTTAGTGCTA,0.0453
GCCGGTCTCCTACTGCTGACGTGCTAG,0.472
